Measurements pooled from the literature.
Every numbered part comes from another study and shows a few of its results, in no order.
Chain of UniProt P36897 (whole entry, looked up): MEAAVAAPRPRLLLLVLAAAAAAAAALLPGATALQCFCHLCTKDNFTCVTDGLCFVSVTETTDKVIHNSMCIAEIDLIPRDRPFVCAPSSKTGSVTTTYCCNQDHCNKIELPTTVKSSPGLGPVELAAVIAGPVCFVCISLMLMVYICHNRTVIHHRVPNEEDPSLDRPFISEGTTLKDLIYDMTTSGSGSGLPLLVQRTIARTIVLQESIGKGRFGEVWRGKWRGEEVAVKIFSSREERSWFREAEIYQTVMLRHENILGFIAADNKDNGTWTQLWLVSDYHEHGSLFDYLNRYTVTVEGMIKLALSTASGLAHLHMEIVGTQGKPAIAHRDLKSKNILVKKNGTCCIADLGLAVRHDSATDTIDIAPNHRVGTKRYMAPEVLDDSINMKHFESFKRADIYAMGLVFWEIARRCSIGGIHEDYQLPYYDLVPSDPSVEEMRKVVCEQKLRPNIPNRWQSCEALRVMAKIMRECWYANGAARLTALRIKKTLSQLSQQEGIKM
Chain of UniProt Q9BUB5 (whole entry, looked up): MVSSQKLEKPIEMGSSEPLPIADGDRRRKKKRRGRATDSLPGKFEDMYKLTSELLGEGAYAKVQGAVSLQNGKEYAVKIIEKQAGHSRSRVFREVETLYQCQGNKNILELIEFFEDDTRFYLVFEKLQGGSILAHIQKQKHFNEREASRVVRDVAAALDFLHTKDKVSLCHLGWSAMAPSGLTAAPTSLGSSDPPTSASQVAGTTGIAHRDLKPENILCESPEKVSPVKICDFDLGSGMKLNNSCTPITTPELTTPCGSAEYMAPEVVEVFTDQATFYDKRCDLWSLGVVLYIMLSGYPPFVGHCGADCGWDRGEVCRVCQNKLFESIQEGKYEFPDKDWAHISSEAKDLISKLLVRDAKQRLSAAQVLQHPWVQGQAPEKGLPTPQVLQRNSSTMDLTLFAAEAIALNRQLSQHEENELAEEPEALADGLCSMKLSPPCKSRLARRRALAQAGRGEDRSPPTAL
Chain of UniProt Q96D53 (whole entry, looked up): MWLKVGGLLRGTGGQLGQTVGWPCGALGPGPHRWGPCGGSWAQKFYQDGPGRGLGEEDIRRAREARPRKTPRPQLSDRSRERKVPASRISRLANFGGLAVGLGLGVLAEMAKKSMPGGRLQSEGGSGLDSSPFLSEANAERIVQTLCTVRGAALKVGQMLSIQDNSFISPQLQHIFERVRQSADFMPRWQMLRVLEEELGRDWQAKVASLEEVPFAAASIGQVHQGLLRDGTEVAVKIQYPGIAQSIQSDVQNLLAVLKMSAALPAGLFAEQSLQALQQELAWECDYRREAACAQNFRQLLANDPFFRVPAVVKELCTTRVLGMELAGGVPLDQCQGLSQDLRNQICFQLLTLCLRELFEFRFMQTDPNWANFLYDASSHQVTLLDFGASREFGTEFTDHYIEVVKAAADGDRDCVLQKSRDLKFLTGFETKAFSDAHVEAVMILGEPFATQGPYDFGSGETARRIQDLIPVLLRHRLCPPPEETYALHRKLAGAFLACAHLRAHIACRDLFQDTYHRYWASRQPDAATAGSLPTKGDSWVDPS

Series 1 — organism: Sarcocystis neurona; observed: parasite growth; concentration: 10 µM; time: 96 h; notes: first screen; reference: untreated
Structure (SMILES) | log2 fold change
O=c1[nH]c(=O)n(C2CCCO2)cc1F (stereo not shown) | -0.23
COc1cc(C)c(/C=C/C(C)=C/C=C/C(C)=C/C(=O)O)c(C)c1C | 0.47
CC1(C)S[C@@H]2[C@H](NC(=O)[C@H](N)c3ccccc3)C(=O)N2[C@H]1C(=O)O | 0.03
CCc1c(C)[nH]c2c1C(=O)C(CN1CCOCC1)CC2 (stereo not shown) | 0.21
Cc1c(OCC(F)(F)F)ccnc1C[S+]([O-])c1nc2ccccc2[nH]1 (stereo not shown) | 0.56

Series 2 — host: human; sample: microsomes or S9; concentration: 2 µM; time: 0.5 h
Structure (SMILES) | remaining compound [%]
Cn1c2nc3ccccc3nc2c2c(=O)n(Cc3ccccc3)cnc21 | 31
c1ccc(OCC2=NN=C(COc3ccccc3)NN2)cc1 | 97.7
COc1cccc(NC(=O)Cn2cnc3c(sc4nc5c(cc43)COC(C)(C)C5)c2=O)c1 | 85.4
Cn1nc(C(=O)N2CCOCC2)cc1C(=O)Nc1ccc(F)cc1OC(F)F | 62.5
CCn1nc(C)c(S(=O)(=O)N(C)Cc2nn(C)c(Cl)c2Cl)c1C | 63.4
CCOc1ccc(S(=O)(=O)/N=C2/CCCCCN2)cc1 | 61.5

Series 3 — method: KINOMEscan; concentration: 1000 nM; reference: control
Structure (SMILES): Cc1cc2c(C(N)=O)c(N)n(-c3c(C)ccc(O)c3C)c2nc1C
target | remaining binding
CSF1R | 1.2%
CSNK2A2 | 100%
RAF1 | 2.8%
WEE1 | 62%
LCK | 1.3%
BRAF | 0.8%

Series 4 — action: inhibitor; concentration: concentration not given; notes: absolute value; with: with minus without ssDNA
Target: DNA polymerase theta, helicase domain (POLQ, Homo sapiens, UniProt O75417)
Chain of UniProt O75417 (whole entry, looked up): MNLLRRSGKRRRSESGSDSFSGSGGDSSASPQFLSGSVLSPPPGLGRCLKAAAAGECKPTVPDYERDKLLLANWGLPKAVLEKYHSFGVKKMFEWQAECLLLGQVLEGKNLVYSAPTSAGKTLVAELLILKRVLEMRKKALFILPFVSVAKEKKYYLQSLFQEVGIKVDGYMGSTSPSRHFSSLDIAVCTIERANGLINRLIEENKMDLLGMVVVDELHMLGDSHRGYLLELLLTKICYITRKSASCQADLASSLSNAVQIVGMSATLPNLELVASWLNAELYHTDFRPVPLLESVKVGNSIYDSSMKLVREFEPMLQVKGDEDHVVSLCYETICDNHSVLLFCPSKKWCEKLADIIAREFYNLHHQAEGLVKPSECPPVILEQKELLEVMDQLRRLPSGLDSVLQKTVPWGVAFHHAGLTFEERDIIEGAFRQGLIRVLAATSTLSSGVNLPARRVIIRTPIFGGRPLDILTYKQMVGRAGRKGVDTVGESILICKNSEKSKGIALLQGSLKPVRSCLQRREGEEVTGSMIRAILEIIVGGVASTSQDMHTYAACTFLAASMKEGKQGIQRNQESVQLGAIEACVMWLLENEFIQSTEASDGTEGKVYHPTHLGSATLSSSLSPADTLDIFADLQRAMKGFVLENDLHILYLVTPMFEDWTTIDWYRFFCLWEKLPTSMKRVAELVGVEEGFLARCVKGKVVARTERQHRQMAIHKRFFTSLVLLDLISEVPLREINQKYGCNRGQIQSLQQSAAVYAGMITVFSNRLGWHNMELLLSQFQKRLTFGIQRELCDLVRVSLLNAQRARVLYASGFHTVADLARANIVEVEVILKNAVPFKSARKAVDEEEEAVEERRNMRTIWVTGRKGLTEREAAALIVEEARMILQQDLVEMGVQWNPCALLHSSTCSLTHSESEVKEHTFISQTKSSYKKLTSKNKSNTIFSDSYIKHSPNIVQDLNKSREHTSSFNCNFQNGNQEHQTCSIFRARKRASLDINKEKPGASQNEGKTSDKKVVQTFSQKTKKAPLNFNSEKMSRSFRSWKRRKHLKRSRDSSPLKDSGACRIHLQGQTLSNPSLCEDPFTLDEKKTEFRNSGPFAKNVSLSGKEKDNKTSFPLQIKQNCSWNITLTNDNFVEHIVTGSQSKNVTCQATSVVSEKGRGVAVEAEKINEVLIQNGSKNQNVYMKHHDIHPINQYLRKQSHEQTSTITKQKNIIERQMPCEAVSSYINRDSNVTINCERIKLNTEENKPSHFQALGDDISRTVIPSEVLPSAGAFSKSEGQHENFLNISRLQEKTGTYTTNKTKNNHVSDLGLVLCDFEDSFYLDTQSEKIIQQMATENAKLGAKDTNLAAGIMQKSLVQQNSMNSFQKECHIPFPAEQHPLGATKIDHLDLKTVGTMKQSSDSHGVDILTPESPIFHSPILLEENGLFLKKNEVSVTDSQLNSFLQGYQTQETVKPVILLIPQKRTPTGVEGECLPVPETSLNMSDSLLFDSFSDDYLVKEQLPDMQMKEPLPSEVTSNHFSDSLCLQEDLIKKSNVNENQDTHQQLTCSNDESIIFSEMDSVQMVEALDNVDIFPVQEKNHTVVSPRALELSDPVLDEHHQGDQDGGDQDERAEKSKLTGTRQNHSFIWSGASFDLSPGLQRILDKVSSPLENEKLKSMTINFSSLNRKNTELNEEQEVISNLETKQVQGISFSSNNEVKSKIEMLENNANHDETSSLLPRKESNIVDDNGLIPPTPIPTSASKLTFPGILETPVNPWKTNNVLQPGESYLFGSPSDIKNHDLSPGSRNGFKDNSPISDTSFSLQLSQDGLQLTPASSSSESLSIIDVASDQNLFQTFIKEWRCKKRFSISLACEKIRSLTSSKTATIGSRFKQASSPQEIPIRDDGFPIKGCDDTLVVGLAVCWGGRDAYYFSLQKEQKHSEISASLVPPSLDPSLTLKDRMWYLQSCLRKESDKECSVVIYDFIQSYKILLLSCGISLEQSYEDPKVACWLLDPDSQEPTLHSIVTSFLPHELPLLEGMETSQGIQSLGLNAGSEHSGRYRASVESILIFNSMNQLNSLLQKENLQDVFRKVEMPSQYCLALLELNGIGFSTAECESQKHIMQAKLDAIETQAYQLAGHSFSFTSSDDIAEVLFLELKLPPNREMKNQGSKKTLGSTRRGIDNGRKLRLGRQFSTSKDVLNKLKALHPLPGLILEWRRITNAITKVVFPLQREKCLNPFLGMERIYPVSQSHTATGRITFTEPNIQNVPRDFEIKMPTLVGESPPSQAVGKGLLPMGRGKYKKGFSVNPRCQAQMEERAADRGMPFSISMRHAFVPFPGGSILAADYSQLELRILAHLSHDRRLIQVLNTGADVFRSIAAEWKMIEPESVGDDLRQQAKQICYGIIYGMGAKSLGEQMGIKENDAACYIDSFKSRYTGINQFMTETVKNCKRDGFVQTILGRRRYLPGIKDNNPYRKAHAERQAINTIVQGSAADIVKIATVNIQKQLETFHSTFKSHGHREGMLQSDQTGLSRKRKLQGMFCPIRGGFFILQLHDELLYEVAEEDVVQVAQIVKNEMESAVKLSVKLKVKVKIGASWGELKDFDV
SMILES | difference in remaining activity
O=C(CSc1ncc(S(=O)(=O)c2ccc(Br)cc2)c(=O)[nH]1)NCc1ccc(Cl)cc1 | 11.9%
CCc1ccc(/C=C2/SC(=S)NC2=O)cc1 | 1.61%
C[C@H]1[C@H](C)CC[C@]2(C(=O)O)CC[C@]3(C)C(=CC[C@@H]4[C@@]5(C)C[C@@H](O)[C@H](O)[C@@](C)(CO)[C@@H]5CC[C@]43C)[C@H]12 | 0.957%
CCOc1cccc2c1N[C@@H](c1ccc(C(=O)O)cc1)[C@H]1CC=C[C@@H]21 | 15.7%

Series 5 — observed: cell-free assay; method: competition with immobilised ligand; concentration: 1 µM
SMILES: O=C(NCc1ncc(C(F)(F)F)cc1Cl)c1ccc2c(c1)C1(CCS(=O)(=O)CC1)[C@H](C1CC1)N2S(=O)(=O)c1ccc(F)cc1
target | remaining binding
MAP kinase-interacting serine/threonine-protein kinase 1 (MKNK1, Homo sapiens, UniProt Q9BUB5) | 74%
MAP kinase-interacting serine/threonine-protein kinase 2 (MKNK2, Homo sapiens, UniProt Q9HBH9) | 83%
Phosphatidylinositol 4,5-bisphosphate 3-kinase catalytic subunit alpha isoform (PIK3CA, Homo sapiens, UniProt P42336, E545K) | 84%
Dual specificity protein kinase CLK4 (CLK4, Homo sapiens, UniProt Q9HAZ1) | 0%
Receptor-type tyrosine-protein kinase FLT3 (FLT3, Homo sapiens, UniProt P36888, ITD) | 100%
Mitogen-activated protein kinase 4 (MAPK4, Homo sapiens, UniProt P31152) | 91%
Tyrosine-protein kinase ZAP-70 (ZAP70, Homo sapiens, UniProt P43403) | 84%
Serine/threonine-protein kinase MRCK alpha (CDC42BPA, Homo sapiens, UniProt Q5VT25) | 100%
Serine/threonine-protein kinase WNK1 (WNK1, Homo sapiens, UniProt Q9H4A3) | 90%
Ribosomal protein S6 kinase alpha-2, N-terminal kinase domain (RPS6KA2, Homo sapiens, UniProt Q15349) | 100%
Cyclin-dependent kinase 3 (CDK3, Homo sapiens, UniProt Q00526) | 100%
SRSF protein kinase 2 (SRPK2, Homo sapiens, UniProt P78362) | 91%
Serine/threonine-protein kinase VRK2 (VRK2, Homo sapiens, UniProt Q86Y07) | 95%
Ephrin type-B receptor 1 (EPHB1, Homo sapiens, UniProt P54762) | 100%
Tyrosine-protein kinase ABL1, phosphorylated (ABL1, Homo sapiens, UniProt P00519, Y253F) | 85%
Peripheral plasma membrane protein CASK (CASK, Homo sapiens, UniProt O14936) | 75%
TGF-beta receptor type-1 (TGFBR1, Homo sapiens, UniProt P36897) | 100%
Serine/threonine-protein kinase ICK (CILK1, Homo sapiens, UniProt Q9UPZ9) | 100%
Atypical kinase COQ8B, mitochondrial (COQ8B, Homo sapiens, UniProt Q96D53) | 83%

Excerpt of the above (series 5):
target | remaining binding
Ephrin type-B receptor 1 (EPHB1, Homo sapiens, UniProt P54762) | 100%
Tyrosine-protein kinase ABL1, phosphorylated (ABL1, Homo sapiens, UniProt P00519, Y253F) | 85%
Peripheral plasma membrane protein CASK (CASK, Homo sapiens, UniProt O14936) | 75%
TGF-beta receptor type-1 (TGFBR1, Homo sapiens, UniProt P36897) | 100%
Serine/threonine-protein kinase ICK (CILK1, Homo sapiens, UniProt Q9UPZ9) | 100%
